Published values gathered from unrelated publications.
Protocols differ between the studies behind these lines. Numbers after ± are the reported error.

SMILES	assay	test system	setting	how to read	endpoint	result
Cc1cc(=O)[nH]c2ccc(OCCCC(=O)N3CCOCC3)cc12	–	rat, isolated spontaneously beating atria	100 µM	relative to: baseline	contraction force increase	19 ± 4%
COc1ccc(C2CC(c3ccc(C)cc3)=Nc3ccccc3S2)cc1 (stereo not shown)	–	Wistar rat, STZ-induced diabetes, serum	oral, 20 mg/kg once daily, 28 days	–	AST (SGOT)	21.8 ± 2.16 IU/L
CC(C)c1cnc(-c2cc(Cl)ccc2F)cc1Nc1ccncc1C(=O)NC(CO)CO	SMAD2 phosphorylation	mouse, 4T1 tumour, tumour	30 mg/kg twice daily then once, 24 h, normalized	–	inhibition	15%
CC1(CN)CCN(c2cnc(Sc3cccc(Cl)c3Cl)c(N)n2)CC1	qPCR, refers to: Il23a and inflammatory factors	imiquimod psoriasis mice, back skin	dose not given	–	mRNA level	inhibited
COC(=O)N1c2ccc3c(nc(Cc4ccccc4)n3[C@@H]3CCC[C@@H](C(=O)O)C3)c2CC[C@@H]1C	–	mouse, breast cancer PDX	oral, 50 mg/kg, 4 days/week, 45 days	–	responding ER+ AR-low xenografts	0%
CN1Cc2c(Cl)cc(Cl)cc2C(c2ccc(S(=O)(=O)NCCOCCOCCNC(=O)C(O)C(O)C(=O)NCCOCCOCCNS(=O)(=O)c3ccc(C4CN(C)Cc5c(Cl)cc(Cl)cc54)cc3)cc2)C1 (stereo not shown)	–	Sprague Dawley rat, urine	oral, 3 mg/kg, 16 h	relative to: control	urinary sodium	11%
Oc1ncnc2c1sc1sc3c(O)ncnc3c12	ABTS	–	concentration not given	–	radical scavenging	64%
CCCOC(=O)Cc1c(C)n(C(=O)c2ccc(Cl)cc2)c2ccc(OC)cc12	hot plate test	BALB/c mice	75 mg/kg, 0 min	–	latency of nociceptive response	10.4 ± 0.36 s
O=C(NC1CCCCC1)C(c1ccccc1)N(C(=O)CCl)c1ccc(F)cc1 (racemic)	competitive ABPP	MDA-MB-435 soluble proteome	5 µM, added: CA-Rh probe	–	off-target molecular weight	38 kDa
Cc1cc2c(cc1C1(c3ncc(C(=O)O)cn3)CC1)C(C)(C)CCC2(C)C	RNA sequencing, refers to: Angptl4 mRNA	rat, brain	dose not given, 24 h, single dose	relative to: vehicle	log2 fold change	-0.64
CN(C)C(=O)c1ccnc(N2Cc3cn(Cc4ccc(F)cc4F)nc3C2)n1	refers to: SMI32	cuprizone-fed mice, corpus callosum	dose not given	–	neurofilament-H intensity	no effect
N#Cc1c(Nc2ccccc2C(F)(F)F)s[nH]c1=O	–	mouse, sciatic nerve axotomy, sciatic nerve	30 mg/kg three times daily, 24 h	relative to: vehicle	cADPR level	72%
Cc1cc(O)c(C=O)c2c1C(=O)Oc1c(CO)c(O)c3c(c1O2)C(O)OC3=O (stereo not shown)	–	streptozotocin diabetic male rats	10 mg/kg, 0 weeks	–	body weight	193 ± 5.43 g
C[N+](C)(CF)CCO	–	human platelet-rich plasma	20 µM, added: ADP 2 µM	–	platelet aggregation	no effect
CCc1nc(-c2ccc(-c3ccc(CCC(N)(CO)CO)cc3)cc2)co1	phosphorylation	human whole blood	60 min, 37 °C, up to 100 µM	–	Km	81.3 ± 14.8 µM
COC(=O)[C@H](CSSC(C)(C)[C@H](NC(=O)[C@H](CCC(=O)NC[C@H](O)[C@@H](O)[C@H](O)[C@H](O)CO)NC(=O)[C@H](CCC(=O)O)NC(=O)[C@H](CCC(=O)NC[C@H](O)[C@@H](O)[C@H](O)[C@H](O)CO)NC(=O)[C@H](CCC(=O)O)NC(=O)[C@H](CCC(=O)NC[C@H](O)[C@@H](O)[C@H](O)[C@H](O)CO)NC(=O)CC[C@H](NC(=O)c1ccc(NCc2cnc3nc(N)[nH]c(=O)c3n2)cc1)C(=O)O)C(=O)O)NC(=O)CC[C@H](NC(=O)c1ccc(NCc2cnc3nc(N)nc(N)c3n2)cc1)C(=O)O	refers to: pannus formation	Lewis rat, adjuvant-induced arthritis	500 nmol/kg twice weekly × 2	direction not given	histological score decrease	87%
Cc1sc(-c2ccc(C(F)(F)F)cc2)nc1-c1nn[nH]c1C#N	–	ZDF rat	10 mg/kg/day, 6 weeks, added: metformin 100 mg/kg/day	relative to: vehicle	HbA1c change reduction	35%
CCCn1cnc(C[C@H](NC(=O)c2nccnc2N)C(=O)N2CCC[C@H]2C(N)=O)c1	–	Swiss albino mice	iv, 10 µmol/kg, added: pentobarbital 50 mg/kg ip	–	sleeping time	85.1 ± 5.5 min
CCOC(=O)c1cc2c(N)c(C(=O)OC)sc2nc1C	–	Sprague-Dawley rats	subcutaneous, 100 mg/kg every 8 h, long-term dosing	relative to: vehicle	urinary osmolality	decreased
CSCC[C@@H]1NC(=O)[C@H](C)NC(=O)[C@H]([C@@H](C)O)NC(=O)CNC(=O)[C@H](CC(C)C)NC(=O)[C@H](CCC(N)=O)NC(=O)[C@H](CCCNC(=N)N)NC(=O)[C@@H]2CSSC[C@@H]3NC(=O)[C@@H]4CCCN4C(=O)[C@H](C(C)C)NC(=O)[C@H](CCC(N)=O)NC(=O)[C@H](CCC(N)=O)NC(=O)CNC(=O)[C@H](CC(C)C)NC(=O)[C@@H]4CSSC[C@H](NC(=O)[C@H]([C@@H](C)O)NC(=O)[C@H](C)NC(=O)[C@H](CSSC[C@@H](C(=O)N[C@@H](CO)C(=O)N[C@@H](CCC(N)=O)C(=O)N[C@H](C(N)=O)[C@@H](C)O)NC(=O)[C@@H]5CCCN5C(=O)[C@H](CC(N)=O)NC1=O)NC(=O)[C@@H]1CCCN1C(=O)[C@H](CC(=O)O)NC(=O)[C@H](CSSC[C@H](NC(=O)[C@H](CCC(N)=O)NC(=O)[C@H](CCC(N)=O)NC(=O)[C@H](CO)NC(=O)[C@@H](N)CO)C(=O)N[C@@H](C(C)C)C(=O)N[C@@H](CCCNC(=N)N)C(=O)N[C@@H](CC(C)C)C(=O)N[C@@H](Cc1c[nH]cn1)C(=O)N[C@@H](CCC(=O)O)C(=O)N[C@@H](CO)C(=O)N4)NC3=O)C(=O)N[C@@H](Cc1ccc(O)cc1)C(=O)N[C@H]1CSSC[C@H](NC(=O)[C@H](Cc3ccccc3)NC(=O)[C@H](C)NC(=O)[C@H](CC(N)=O)NC(=O)[C@H](Cc3ccccc3)NC(=O)[C@H](Cc3ccccc3)NC(=O)[C@H](CCCNC(=N)N)NC1=O)C(=O)N[C@@H](Cc1ccc(O)cc1)C(=O)N2	–	Long-Evans rat, male	intracerebroventricular, 1.0 nmol, 5 days	–	body weight change	-6.09 ± 5 g
C=C1C[C@@]23CC[C@H]4[C@@](C)(CCC[C@@]4(C)C(=O)O[C@@H]4O[C@H](CO)[C@@H](O)[C@H](O)[C@H]4O)[C@@H]2CC[C@]1(O[C@@H]1O[C@H](CO[C@H]2O[C@H](CO)[C@@H](O)[C@H](O)[C@H]2O)[C@@H](O)[C@H](O)[C@H]1O[C@@H]1O[C@H](CO)[C@@H](O)[C@H](O)[C@H]1O)C3	qPCR, refers to: Fgf21	C57BL/6N mice, high-fat diet, brown adipose tissue	drinking water, 0.2 g/L, 16 weeks	–	mRNA level	increased
C=C(c1cc(F)c(C(=O)O)c(F)c1)c1cc2c(cc1C)C(C)(C)CCC2(C)C	RNA sequencing, refers to: Alb mRNA	rat, brain	dose not given, 24 h, single dose	relative to: vehicle	log2 fold change	-2.9
CC1OC(OC2C(c3c(O)cc(O)c4c(=O)cc(-c5ccc(O)cc5)oc34)OC(CO)C(O)C2O)C(O)C(O)C1O (stereo not shown)	–	–	–	–	ABTS scavenging, TEAC	525 ± 5.82 µM TE/mM
Cc1nc(C)c(C=[N+]([O-])C(C)(C)C)nc1C	Western blot, refers to: PGC-1α	mouse, MPTP model, substantia nigra cytosol	10 mg/kg	–	protein level increase	27.1%
COc1ccc(C2CC(c3ccc(C)cc3)=Nc3ccccc3S2)cc1OC (stereo not shown)	–	Wistar rat, STZ-induced diabetes	oral, 20 mg/kg once daily, day 28	–	body weight	182 ± 4.66 g
CN(C)c1ccc2c(-c3cc(C(=O)N4CCN(CCCOc5ccc6nccc(C(=O)NCC(=O)N7CC(F)(F)C[C@H]7C#N)c6c5)CC4)ccc3C(=O)[O-])c3ccc(=[N+](C)C)cc-3oc2c1	flow cytometry	mouse B16-F10 tumour, tumour	dose not given	–	macrophages among labelled immune cells	67%
CC/C=C\C/C=C\C/C=C\C/C=C\C/C=C\CCCCOC(CC)C(=O)O (stereo not shown)	–	APOE*3Leiden.CETP mice, high-fat diet	dose not given, 6 weeks, after 20 weeks diet	relative to: control	hepatic triglycerides change	-48%
COc1c2c(cc3oc(COC4OC(CO)C(O)C(O)C4O)cc(=O)c13)OC(C(C)(C)O)C2 (stereo not shown)	rectal temperature	rat, 2,4-dinitrophenol-induced pyrexia	oral, dose not given	–	onset of antipyretic effect	2 h

Repeated from above:
SMILES	assay	test system	setting	how to read	endpoint	result
C[N+](C)(CF)CCO	–	human platelet-rich plasma	20 µM, added: ADP 2 µM	–	platelet aggregation	no effect
CCc1nc(-c2ccc(-c3ccc(CCC(N)(CO)CO)cc3)cc2)co1	phosphorylation	human whole blood	60 min, 37 °C, up to 100 µM	–	Km	81.3 ± 14.8 µM
